Assay results collected from several papers.
Each line is one published result; not all experiments were run side by side.
Target: Amine oxidase [flavin-containing] B (MAOB, Homo sapiens, UniProt P27338)
Sequence of UniProt P27338 (whole entry, looked up): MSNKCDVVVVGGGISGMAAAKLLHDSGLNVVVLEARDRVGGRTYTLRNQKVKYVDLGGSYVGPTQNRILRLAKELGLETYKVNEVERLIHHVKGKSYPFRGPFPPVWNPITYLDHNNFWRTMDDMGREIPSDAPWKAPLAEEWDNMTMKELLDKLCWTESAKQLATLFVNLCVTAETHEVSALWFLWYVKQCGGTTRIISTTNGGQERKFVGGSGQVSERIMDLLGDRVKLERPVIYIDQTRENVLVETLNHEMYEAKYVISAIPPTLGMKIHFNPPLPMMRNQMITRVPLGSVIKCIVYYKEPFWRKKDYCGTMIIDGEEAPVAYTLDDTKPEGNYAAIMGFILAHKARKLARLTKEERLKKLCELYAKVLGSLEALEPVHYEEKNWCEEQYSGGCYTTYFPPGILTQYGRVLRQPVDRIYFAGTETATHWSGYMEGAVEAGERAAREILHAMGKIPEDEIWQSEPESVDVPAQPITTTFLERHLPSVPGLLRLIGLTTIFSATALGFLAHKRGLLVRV
Observed: enzyme activity
Action: inhibitor
Tested at: 10 µM

SMILES | technique | remaining activity [%]
NC(=S)N/N=C/c1ccccc1OCc1ccccc1 | absorbance | 46.6
O=C(/C=C/c1ccccc1Br)c1cc2ccccc2oc1=O | – | 69.6
S=C(N/N=C/c1ccccc1OCc1ccccc1)Nc1ccccc1 | absorbance | 64.3
O=C1c2ccccc2N(Cc2ccccc2)C12CCCC2 | – | 61.3
S=C(N/N=C/c1ccc(OCc2ccccc2)cc1)Nc1ccccc1 | absorbance | 38.1
O=C1c2cc(F)ccc2N(Cc2ccccc2)C12CCCC2 | – | 43.6
CNC(=S)N/N=C/c1cccc(OCc2ccccc2)c1 | absorbance | 39.6
O=C(/C=C/c1ccc(Br)cc1)c1cc2ccccc2oc1=O | – | 31.6
O=C(/C=C/c1ccc([N+](=O)[O-])cc1)c1ccc(N2CCNCC2)cc1 | – | 35.1
O=C1c2cc(Cl)ccc2N(Cc2ccccc2)C12CCCC2 | – | 29
NC(=S)N/N=C/c1ccc(OCc2cccc(F)c2)cc1 | absorbance | -10.2
O=C(/C=C/c1ccc(F)cc1)c1ccc(N2CCNCC2)cc1 | – | 9.91
O=C1c2ccccc2N(Cc2cccc(Br)c2)C12CCCC2 | – | 11
COc1ccc(/C=C/C(=O)c2ccc(N3CCNCC3)cc2)cc1 | – | 15
O=C(/C=C/c1cccc(F)c1)c1cc2ccccc2oc1=O | – | 39.3
NC(=O)N/N=C/c1cccc(OCc2ccccc2)c1 | absorbance | 33
CCc1ccc(/C=C/C(=O)c2ccc(N3CCNCC3)cc2)cc1 | – | 27.3
O=C(/C=C/c1cccc(Cl)c1)c1cc2ccccc2oc1=O | – | 34.9
O=C(/C=C/c1ccc(Cl)cc1)c1ccc(N2CCNCC2)cc1 | – | 11.6
O=C1c2cc(F)ccc2NC12CCCC2 | – | 67.8

A few entries again:
SMILES | technique | remaining activity [%]
S=C(N/N=C/c1ccccc1OCc1ccccc1)Nc1ccccc1 | absorbance | 64.3
O=C(/C=C/c1ccc(Br)cc1)c1cc2ccccc2oc1=O | – | 31.6
O=C(/C=C/c1ccccc1Br)c1cc2ccccc2oc1=O | – | 69.6
